Assay results pooled from the literature.
Every numbered part comes from another study and shows a few of its results, in no order. Changes are numbered by the printed parent chain.

Study 1
Target: Protein C-ets-1 (ETS1, Homo sapiens, UniProt P14921, residues 1-441, full length assumed)
Chain of UniProt P14921 (whole entry, looked up): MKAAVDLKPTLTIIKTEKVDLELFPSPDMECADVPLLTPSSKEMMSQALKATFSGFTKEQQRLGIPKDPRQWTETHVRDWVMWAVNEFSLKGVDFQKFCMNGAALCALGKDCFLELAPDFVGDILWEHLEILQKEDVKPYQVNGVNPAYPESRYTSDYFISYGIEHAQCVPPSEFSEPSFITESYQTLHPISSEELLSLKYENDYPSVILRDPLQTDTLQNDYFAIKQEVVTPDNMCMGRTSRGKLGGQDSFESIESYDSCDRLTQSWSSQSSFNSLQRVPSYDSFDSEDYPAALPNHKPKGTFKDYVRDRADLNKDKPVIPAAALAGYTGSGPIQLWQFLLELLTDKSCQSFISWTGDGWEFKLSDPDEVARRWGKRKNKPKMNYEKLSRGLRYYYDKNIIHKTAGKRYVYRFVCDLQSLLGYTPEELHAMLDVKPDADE
Method: protein-binding microarray
Form: double-stranded DNA, one strand shown
Medium: in vitro
Concentration: not given
Setting: k-mer, scored over probes, only values ≥0.25
Direction: higher = stronger binding
`ATCCGATA` gave an E-score of 0.294.
`CGGACACG` has an E-score of 0.348.
`GGGAAATA` has an E-score of 0.355.
With `GTCCGGAA` the E-score was 0.464.
`ACCGGCAG` has an E-score of 0.259.
`GGGACGGA` has an E-score of 0.359.
The E-score of `CATCCCGC` is reported as 0.3.
`AGTGGAAG` gave an E-score of 0.265.
For `CCCCGCCG`, the E-score was 0.261.
`ACACCGGA` gave an E-score of 0.469.
`ACCGGAGA` gave an E-score of 0.296.
For `CCGATTCC`, the E-score was 0.351.
With `CCGGTAGC` the E-score was 0.328.
The E-score of `CGGAACAC` is reported as 0.363.

Study 2
Target: RING finger protein unkempt homolog, zinc fingers 1-6, GST-SBP tag (UNK, Homo sapiens, UniProt Q9C0B0, residues 30-357)
Chain of UniProt Q9C0B0 (30-357, looked up): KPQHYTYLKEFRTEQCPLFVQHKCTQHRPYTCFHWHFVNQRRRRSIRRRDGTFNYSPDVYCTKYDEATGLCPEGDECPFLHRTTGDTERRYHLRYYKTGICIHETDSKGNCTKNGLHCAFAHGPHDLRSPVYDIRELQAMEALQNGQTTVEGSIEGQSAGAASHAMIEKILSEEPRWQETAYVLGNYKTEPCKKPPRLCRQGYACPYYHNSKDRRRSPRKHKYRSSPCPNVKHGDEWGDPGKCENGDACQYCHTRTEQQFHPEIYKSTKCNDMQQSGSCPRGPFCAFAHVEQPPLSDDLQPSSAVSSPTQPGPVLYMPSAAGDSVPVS
Method: RNA Bind-n-Seq
Form: RNA
Medium: in vitro
Concentration: not given
Setting: RNA with constant flanks, human and mouse sites, ends assumed
Relative to: input RNA pool
Direction: higher = stronger binding
`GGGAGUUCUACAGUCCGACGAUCGUAGAUAAGGUCAUGGAUCAAAAAGAACAUAAAUUGAAUGGGAAGGUGAUUGAUCCUAAAAGGGCCAAAGCCAUGAAAACAAAAGAGCCGGUUAAAAAAAUUUUUGUUGGUGGCCUUUCUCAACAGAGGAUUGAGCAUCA` gave a bound/input enrichment of 0.544 ratio.
With `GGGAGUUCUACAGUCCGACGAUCUUCCAGUGUCCAAUAUGUGGUUUGGUUAUUAAAAGGAAGAGUUACUGGAAGCGGCACAUGGUGAUUCACACAGGUUUAAAAAGUCAUCAGUGUCCGCUCUGUCCAUUCCGGUGUGCUCGCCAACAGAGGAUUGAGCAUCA` the bound/input enrichment was 0.182 ratio.
For `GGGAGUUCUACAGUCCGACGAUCGGUGGCUCUUCUCUGCUCAUCGAGGCAUUAUCUAACAGUAGCCACAAGUGCCAAGCAGACAUUAGACAUAUCCUGAAUAAGAAUGGAGGAGUGAUGGCUGUAGGAGCUCGUCACUCUUUUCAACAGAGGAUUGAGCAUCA`, the bound/input enrichment was 0.598 ratio.
The bound/input enrichment of `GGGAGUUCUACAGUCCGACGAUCGGCAUUAAAAAAGUCAGAUCUAUUCCCAAGAACAUCACCGUUGUGUCAGGCACAGACCUGGUCCUACCCUGCCACCUCUCGUCCAAUUUGGCCCAUGCCCACUGGACCUUCGGAAGCCAGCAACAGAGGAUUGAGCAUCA` is reported as 0.165 ratio.
For `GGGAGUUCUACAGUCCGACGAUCGAGGUUACCCAUUUUUGUUUGCCUCAACUUCUUCCGUUACUUAAACAUACUACGUCAUACAUUCACGAAGUUUUUGAAUUUUAUGAAGAAAUUUUGACUUGUCGCUAUCCGUACUCCUGUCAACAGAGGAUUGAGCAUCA`, the bound/input enrichment was 0.343 ratio.
The bound/input enrichment of `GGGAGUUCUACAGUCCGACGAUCGUGACUGGUGUUAAGAUUUCCCCUCAGCAAAGAAGUGCAGUAGUCACCAUAAUUCCAUCUGUGGUGAGUGCCAGUCAGAUUGUGGAGCUGGUCCCAGACCUCAGUUUAGACAUGGGAACUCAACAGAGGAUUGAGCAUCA` is reported as 0.216 ratio.
For `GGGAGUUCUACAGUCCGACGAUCGAUAAAGAUCCCAACAAGAAGAUGAAACGAAACUUAAGGAAAAUUCUAGAUAGUAAAGCAAUAGACCUUAUGAAUGCACUAAUGAGAUUAAAUCAGAUCAGGCCCGGGCUUCAGUAUAAGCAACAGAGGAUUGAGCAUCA`, the bound/input enrichment was 2.08 ratio.
With `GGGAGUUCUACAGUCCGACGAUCCAAUAUAAGGAUGAUAAUUUUGGAGAAGGAAAUGAUGGUGGAAUAUUAGAUGACAAACUUAUUAGUAAUAAUGAUGGCGGUAUCUUUGAUGAUCCCCCUGCCCUCUCUGAGGCAGGGGUGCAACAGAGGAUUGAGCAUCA` the bound/input enrichment was 208 ratio.

Study 3
Target: RNA binding protein fox-1 homolog 2, RRM domain, GST-SBP tag (RBFOX2, Homo sapiens, UniProt O43251-10, residues 100-194)
Method: RNA Bind-n-Seq
Form: RNA
Medium: in vitro
Concentration: 365 nM
Setting: natural RNA segment, single round, ends assumed
Relative to: no-protein control
Direction: higher = stronger binding
Residues (chain): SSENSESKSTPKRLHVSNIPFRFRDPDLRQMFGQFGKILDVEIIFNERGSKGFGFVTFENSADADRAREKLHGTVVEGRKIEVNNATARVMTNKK
For `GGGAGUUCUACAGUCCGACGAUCCAUCCAUUCUGGAAACACCUGUAGGCAGAGGCUGCCGAGACAGACCCUCUGCCGCUGCUUCCAGGCUGGGCAGCACAAGGCCUUGCCUGGCCUGAUGAUGGUGGGUGGGUUGGAAUUCUCGGGUGCCAA`, “RBNS enrichment (R)” read 0.313.
Under “RBNS enrichment (R)”, `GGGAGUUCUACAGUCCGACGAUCAGUGCAAUAUAUUUUGUAUGCAAACAGUUUCAAUAAAGUUUGAUCUUCCUCUGCUAAAUUGAUGUUGAUGCAAUCCUUACAAUGAUUGCUUUUAAAAUUUUAAGAUAGGAUGGAAUUCUCGGGUGCCAA` is recorded as 0.279.
`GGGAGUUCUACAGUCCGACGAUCGAUUAUCUUUAAUACCCUAGGCCUGGAUUGAGAGGCCUUCCUGUUCUAAGCCUACAAGUACUACUUGCUAUAGCUCAGACUUGUCUACAGUUCUUUGUAUGAUGCACUUUUGGAAUUCUCGGGUGCCAA`: “RBNS enrichment (R)” 0.963.
`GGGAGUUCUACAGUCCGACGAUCACACAGCAUUUUCAAAGAUAGCCUGGGAGCACUGUCUCUGACCACCUGUCUUCCUCUGCACCGUGCUCAGGGAAAUGGCCUUCAUUCCAGAGGCCAGCUGUCUGCCUGACUGGAAUUCUCGGGUGCCAA` — result for “RBNS enrichment (R)”: 0.33.
For `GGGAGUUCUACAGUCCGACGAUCCCAACCUGACCUAACCUAGGAGGGCUCUGAGCCAACCUUGCUCUUGGGGAAGGGGACAGAUUAUGAAAUUUCAUGGAUGAAUUUUCCAGACCUAUAUCUGGAGUGAGAGGUGGAAUUCUCGGGUGCCAA`, “RBNS enrichment (R)” read 0.242.
Under “RBNS enrichment (R)”, `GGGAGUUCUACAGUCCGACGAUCGGGAAACAUUUGCACUCUUUUAGUGCAUUUCCUCCUGCCUUUGCUUGUUCACUGCAGUCUUAAGAAAGAGGUAAAAGGCAAGCAAAGGAGAUGAAAUCUGUUCUGGGAAUUGGAAUUCUCGGGUGCCAA` is recorded as 0.342.
For `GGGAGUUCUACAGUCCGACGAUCGCUAUAGGAAGAGGCCAUACCUAGAGCCAAGAACCAUGAAGGCCUGAGAGACGGCAGACUGAGCAGAAUUCCUUUUUUGAGCACGAGAGCAUUACUAGAACCAUUGUCAAUGGAAUUCUCGGGUGCCAA`, “RBNS enrichment (R)” read 2.55.
Under “RBNS enrichment (R)”, `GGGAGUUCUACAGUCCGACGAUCGGAAAUGAUACACUACUGGCUUAAGUGAUGACUCUUUCAGAUUUUCAGUAUUUUAUACAACUACUGCCACAUCCUUAUACUUUAUUGCUUUUCUGUCUUCUUCAACCUGGUGGAAUUCUCGGGUGCCAA` is recorded as 0.336.

Study 4
Target: CCNE2, cyclin fold, Cln2 fusion (human)
Method: yeast growth competition, sequencing
Medium: yeast
Setting: strong parent motif
Relative to: not given
Direction: higher = stronger binding
Starting sequence: RBL1 docking peptide (human); GSAKRRLFGEDPP; partner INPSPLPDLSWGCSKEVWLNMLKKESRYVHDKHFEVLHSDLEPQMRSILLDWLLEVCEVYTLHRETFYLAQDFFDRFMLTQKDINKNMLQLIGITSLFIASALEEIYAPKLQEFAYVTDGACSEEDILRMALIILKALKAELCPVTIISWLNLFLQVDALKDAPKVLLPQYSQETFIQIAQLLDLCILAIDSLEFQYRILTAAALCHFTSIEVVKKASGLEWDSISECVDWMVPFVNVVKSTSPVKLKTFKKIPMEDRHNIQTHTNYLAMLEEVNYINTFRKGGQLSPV
For `F8D`, “normalised enrichment score” read 0.34.
`L7N`: “normalised enrichment score” 0.594.
`K4L` — result for “normalised enrichment score”: 0.359.
`R6E`: “normalised enrichment score” 0.852.
`P13S`: “normalised enrichment score” 4.35.
`G1R` — result for “normalised enrichment score”: 4.73.
`F8N`: “normalised enrichment score” -0.207.
`P13N`: “normalised enrichment score” 4.61.
Under “normalised enrichment score”, `D11C` is recorded as 3.76.
`P13I` — result for “normalised enrichment score”: 4.7.
`K4P` — result for “normalised enrichment score”: -0.335.
Under “normalised enrichment score”, `E10Y` is recorded as 3.23.
`P13Q` — result for “normalised enrichment score”: 3.75.
`E10H` — result for “normalised enrichment score”: 3.75.
`P12A`: “normalised enrichment score” 4.29.
For `K4R`, “normalised enrichment score” read 4.98.
For `R6I`, “normalised enrichment score” read 2.72.

For quick reference, copied from above (study 1):
With `GTCCGGAA` the E-score was 0.464.
`ACCGGCAG` has an E-score of 0.259.
`GGGACGGA` has an E-score of 0.359.
